Measured values gathered from unrelated publications.
Every numbered part comes from another study and shows a few of its results, in no order. Substitutions count along the parent as printed.

Block 1
Target: Interferon regulatory factor 7, full length, phosphomimetic (IRF7, Homo sapiens, UniProt Q92985, residues 1-503, S101K/S471D/S472D/S475D/S476D/S477D/S483D/S484D/S487D)
Technique: protein-binding microarray
Molecule type: double-stranded DNA, one strand shown
Sample: in vitro
Concentration: 250 nM
Setting: 60-bp whole probe
With: salmon DNA 0.4 mg/ml
Baseline: random background probes
Reading: higher = stronger binding
Shared flanks, not repeated: GCCTAGCAC … GTCTTGATTCGCTTGACGCTGCTG
Residues (chain): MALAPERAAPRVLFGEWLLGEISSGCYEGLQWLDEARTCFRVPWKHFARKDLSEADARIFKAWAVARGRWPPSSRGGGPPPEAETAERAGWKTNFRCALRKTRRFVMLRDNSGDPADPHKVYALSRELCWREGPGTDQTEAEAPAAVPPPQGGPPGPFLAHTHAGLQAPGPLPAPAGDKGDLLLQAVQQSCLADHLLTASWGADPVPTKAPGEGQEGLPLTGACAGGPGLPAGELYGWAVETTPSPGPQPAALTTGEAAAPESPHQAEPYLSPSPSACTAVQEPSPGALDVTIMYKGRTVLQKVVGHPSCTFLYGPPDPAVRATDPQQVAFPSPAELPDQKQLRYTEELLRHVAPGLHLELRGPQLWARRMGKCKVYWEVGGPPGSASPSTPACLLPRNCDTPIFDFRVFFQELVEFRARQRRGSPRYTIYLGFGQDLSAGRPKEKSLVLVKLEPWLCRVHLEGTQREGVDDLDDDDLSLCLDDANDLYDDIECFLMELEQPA
For `TTAGGTATGGGGACTGGGTTAGTGCTA`, the log fluorescence was -0.412 z-score.
`GACGATTTCCGTTTCGAGACGTGCTAG` gave a log fluorescence of 4.04 z-score.
For `TTAGATCTCAGACAGGATTAGTGCTAG`, the log fluorescence was 0.175 z-score.
`GTAGATATCGGGTTTCGATTAGTGCTA` gave a log fluorescence of 6.38 z-score.
The log fluorescence of `GATGGTTTCCTTTTCCTGACGTGCTAG` is reported as 7 z-score.
`GCCGGTATCGGTTTCGGGACGTGCTAG` has a log fluorescence of 6.93 z-score.
`GATGGACTGCTTTTCCTGACGTGCTAG` has a log fluorescence of 0.238 z-score.
`GACGGACTGGGTATCGAGACGTGCTAG` has a log fluorescence of -0.21 z-score.
With `TTAGGACTGGAATATCGGTTAGTGCTA` the log fluorescence was 0.0518 z-score.
With `GACGATATCAGTCTCTAGACGTGCTAG` the log fluorescence was 0.0189 z-score.
`TTAGAACTGGGGAATCGATTAGTGCTA` has a log fluorescence of 0.0899 z-score.
The log fluorescence of `GACGAACTGAGTCTCGAGATGTGCTAG` is reported as 0.909 z-score.
For `TCATATTTTTTTCCAGAACTGTGCTAG`, the log fluorescence was 1.13 z-score.
With `GACAGTATCGGGTTTCGGGACGTGCTA` the log fluorescence was 3.14 z-score.
`TTAGGTATCCTACTGCGTTAGTGCTAG` gave a log fluorescence of -0.0955 z-score.
With `TGCTTTGGACCCAGGGCTAAGTGCTAG` the log fluorescence was 0.998 z-score.
With `GTAGGTATCCTTTTCCTTTAGTGCTAG` the log fluorescence was 1.08 z-score.
With `TCATATGCCGACTTTGGAACTGTGCTA` the log fluorescence was 0.468 z-score.
`GACGATTACAGTCTCGAGACGTGCTAG` has a log fluorescence of 0.272 z-score.
`AGGATCCTGGGAGGGAGAGCGTGCTAG` has a log fluorescence of -0.207 z-score.
`TCGTATGTGACCTTTTTAAGAGTGCTA` gave a log fluorescence of 0.88 z-score.
For `TTTGGTTTCCTACTGCTTTAGTGCTAG`, the log fluorescence was 1.97 z-score.

Block 2
Target: RING finger protein unkempt homolog, zinc fingers 1-6, GST-SBP tag (UNK, Homo sapiens, UniProt Q9C0B0, residues 30-357)
Technique: RNA Bind-n-Seq
Molecule type: RNA
Sample: in vitro
Concentration: not given
Setting: RNA with constant flanks, ends assumed
Baseline: input RNA pool
Reading: higher = stronger binding
Target sequence (chain): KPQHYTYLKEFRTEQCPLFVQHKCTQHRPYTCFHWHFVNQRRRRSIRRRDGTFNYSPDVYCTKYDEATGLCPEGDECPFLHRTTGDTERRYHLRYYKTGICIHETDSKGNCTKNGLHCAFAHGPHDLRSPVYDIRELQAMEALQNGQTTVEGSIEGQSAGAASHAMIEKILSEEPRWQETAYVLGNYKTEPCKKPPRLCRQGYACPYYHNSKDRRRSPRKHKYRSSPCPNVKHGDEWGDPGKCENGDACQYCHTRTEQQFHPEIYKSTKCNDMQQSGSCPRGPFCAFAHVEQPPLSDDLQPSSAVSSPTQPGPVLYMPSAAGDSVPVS
With `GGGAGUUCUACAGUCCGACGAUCAACGCUUCCGUGAGACUUGACAAUAGCUCUGGUGCAAGUGUGGUAGCUAUCGACAACAAAACCGAGCAAGCUAUGGAUCUGGUGAAAAGCCAUUUGAUGUAUGCGGUGAGGGAGGAAGUGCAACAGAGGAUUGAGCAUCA` the bound/input enrichment was 0.202 ratio.
`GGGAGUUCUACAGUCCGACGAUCCCGCCUCGGGUCGUGGAGCCAGGAGCGACGUCACCGCCAUGGCAGGCAUCAAAGCUUUGAUCCGUUUGUCCUUUGGAGGAGCAAUCGGACUGAUGUUUUUGAUGCUUGGAUGUGCCCUUCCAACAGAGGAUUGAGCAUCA` gave a bound/input enrichment of 0.0587 ratio.
With `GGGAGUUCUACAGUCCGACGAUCAGGCAUGAGCUCUUGGCAGGAGUGGGCUCUGAGCAGGUGUCAUAUUCAUUCUUUACAAACCACCGAGAAAUAAUUUCAUCCCCCAACUGUAGUAAUUGUUACAAUUUUAUAUAAAAAAUUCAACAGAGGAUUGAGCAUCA` the bound/input enrichment was 13.1 ratio.
`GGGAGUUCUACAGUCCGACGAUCCCGAAAGUAGUGAAUGAAAUAAACAUUGAAGAUUUGUGUCUUACUAAAGCAGCUUAUUGCCGGUGUUGGCGUUCUAAAACGUUUCCUGCCUGCGAUGGUUCACAUAAUAAACACAAUGAACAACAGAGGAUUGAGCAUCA` has a bound/input enrichment of 4.96 ratio.
The bound/input enrichment of `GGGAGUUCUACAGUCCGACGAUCAUGUAUUCAAUAGAUCUCUACAACUAUGCCCCUUCUAGCAGGGAUACCUAUAACUUUGUGUCCGCACCAUGGAGAAUACAAUGUUUUUGCAACAUAUGAGAGAAGAUAGUUCUAGCCAUGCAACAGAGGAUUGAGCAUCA` is reported as 0.434 ratio.
`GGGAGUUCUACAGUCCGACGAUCGAGCCAAGUCGGCAGUUUGUAAAGGACUCCAUUCGGCUGGUUAAAAGAUGCACUAAACCUGACCGAAAAGAAUUCCAGAAGAUUGCCAUGGCAACAGCAAUAGGAUUUGCUAUAAUGGGACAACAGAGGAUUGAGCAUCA` gave a bound/input enrichment of 0.199 ratio.
The bound/input enrichment of `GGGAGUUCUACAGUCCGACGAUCCCUGGAUGGAACGAGGCAGCAUCACAGUAAACCUUUGGGGACCAUGUAGCCAGCUGGCAUCCCCGGGAACUCCUUCCCAUAGCCCGACUGCUGUCACAGCUAAGCUUCUCACAGGACUGUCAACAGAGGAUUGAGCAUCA` is reported as 0.341 ratio.
With `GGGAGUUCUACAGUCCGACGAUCAAGGAACUGGAAGUACCUCAUUUUCACCAUGAGCUUGUAUAUGAAGCUAUUAUAAUGGUUUCCGAGUCAACUGGAGAAAGUACAUUUAAGAUGAUUUUGGAUUUAUUAAAGUCCCUUUGGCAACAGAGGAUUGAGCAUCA` the bound/input enrichment was 0.182 ratio.
With `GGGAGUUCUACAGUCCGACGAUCGCUUUGACUUCAAAAAAAGCAAGAUUUGAUCCAUAUGGAAAGAAUAAGUUCUCCACUUGCCGAAUUUGUAAAAGUUCUGUGCACCAACCAGGUUCUCAUUACUGCCAGGGCUGUGCCUACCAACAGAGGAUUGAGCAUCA` the bound/input enrichment was 0.197 ratio.
For `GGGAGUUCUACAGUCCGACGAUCGCAUCCUGUGAAAAUACUCUUAAUACGUUAAGAUAUGCAAAUAGAGUAAAGGAGUUUGGAAUCCGUCCUUCAGACAUUCCCUUCUCCCAGGGUGGUGGCAGUCGCCCUGAUCUCUCUCCUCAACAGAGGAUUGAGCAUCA`, the bound/input enrichment was 0.114 ratio.
The bound/input enrichment of `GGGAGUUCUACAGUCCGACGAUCGUAAUGGACGUCAACACUGCUCUACAAGAGGUGCUGAAGACCGCCCUCAUCCACGAUGGCCCCGCACGUGGCAUACGCGAAGCUGCCAAAGCCUUAGACAAGCGCCAAGCCCAUCUGUGUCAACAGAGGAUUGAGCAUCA` is reported as 0.162 ratio.

Block 3
Target: CCNF, cyclin fold, Cln2 fusion (human)
Technique: yeast growth competition, sequencing
Sample: yeast
Setting: strong parent motif
Baseline: not given
Reading: higher = stronger binding
Starting sequence: RBL2 docking peptide (human); STTRRRLFVENDS
`STTRRRLFVFNDS [E10F]` — result for “normalised enrichment score”: 8.8.
For `STTSRRLFVENDS [R4S]`, “normalised enrichment score” read 5.56.
Under “normalised enrichment score”, `STTRRRLFVGNDS [E10G]` is recorded as 7.71.
Under “normalised enrichment score”, `SQTRRRLFVENDS [T2Q]` is recorded as 8.29.
For `STTRRRLFGENDS [V9G]`, “normalised enrichment score” read 7.34.
`STTRFRLFVENDS [R5F]` — result for “normalised enrichment score”: 0.915.
`STTRRRLFVEQDS [N11Q]` — result for “normalised enrichment score”: 8.36.
`STTRRRLFVECDS [N11C]` — result for “normalised enrichment score”: 8.54.
Under “normalised enrichment score”, `SATRRRLFVENDS [T2A]` is recorded as 7.54.
For `SDTRRRLFVENDS [T2D]`, “normalised enrichment score” read 5.57.
Under “normalised enrichment score”, `STTRRRLFAENDS [V9A]` is recorded as 8.72.
`STTRKRLFVENDS [R5K]`: “normalised enrichment score” 4.57.
`STTRRRWFVENDS [L7W]` — result for “normalised enrichment score”: 1.63.
Under “normalised enrichment score”, `STTRRRLFVENSS [D12S]` is recorded as 8.29.
Under “normalised enrichment score”, `STTRRRLFMENDS [V9M]` is recorded as 8.07.
`FTTRRRLFVENDS [S1F]`: “normalised enrichment score” 8.44.

Block 4
Target: OGT, full length, His-tagged (human)
Technique: phage display, sequencing
Sample: in vitro
Concentration: 1 µg OGT
Setting: single substitutions, 15-mer displayed peptide, unchanged parent 16.7
Baseline: input library
Reading: higher = stronger binding
Starting sequence: peptide; NSEYMPQYQIIFAHQ
`A13V` has a fold enrichment of 16.9 fold.
`Q7F` has a fold enrichment of 16.1 fold.
With `E3D` the fold enrichment was 19.2 fold.
For `N1Y`, the fold enrichment was 15.9 fold.
With `Q15Y` the fold enrichment was 11.7 fold.
With `S2G` the fold enrichment was 18.5 fold.
For `Q7N`, the fold enrichment was 2.42 fold.
For `N1S`, the fold enrichment was 16.5 fold.
The fold enrichment of `N1H` is reported as 13.9 fold.
`I11H` has a fold enrichment of 18.8 fold.
With `Y8M` the fold enrichment was 1.2 fold.
For `H14V`, the fold enrichment was 6.94 fold.
For `M5S`, the fold enrichment was 7.96 fold.
The fold enrichment of `E3M` is reported as 14.5 fold.
For `P6T`, the fold enrichment was 1.53 fold.
For `Q9P`, the fold enrichment was 6.28 fold.
For `N1I`, the fold enrichment was 24.9 fold.
`N1D` gave a fold enrichment of 17.2 fold.
`Y4T` has a fold enrichment of 1.18 fold.
For `I10M`, the fold enrichment was 1.82 fold.
`S2V` has a fold enrichment of 7.18 fold.
`I10H` gave a fold enrichment of 0.526 fold.
`F12W` gave a fold enrichment of 20 fold.
With `Q9S` the fold enrichment was 3.76 fold.
`Y4S` has a fold enrichment of 0.827 fold.

Excerpt of the above (block 4):
For `N1I`, the fold enrichment was 24.9 fold.
With `Y8M` the fold enrichment was 1.2 fold.
For `Q9P`, the fold enrichment was 6.28 fold.
`S2V` has a fold enrichment of 7.18 fold.
